Published values from different studies.
Lines come from different studies, so protocols differ. Values joined by “and” are separate records of one study, mostly repeats; a detail may differ.
U2AF2: U2AF2 148-342 (Homo sapiens, UniProt P26368)
Sequence of UniProt P26368 (whole entry, looked up): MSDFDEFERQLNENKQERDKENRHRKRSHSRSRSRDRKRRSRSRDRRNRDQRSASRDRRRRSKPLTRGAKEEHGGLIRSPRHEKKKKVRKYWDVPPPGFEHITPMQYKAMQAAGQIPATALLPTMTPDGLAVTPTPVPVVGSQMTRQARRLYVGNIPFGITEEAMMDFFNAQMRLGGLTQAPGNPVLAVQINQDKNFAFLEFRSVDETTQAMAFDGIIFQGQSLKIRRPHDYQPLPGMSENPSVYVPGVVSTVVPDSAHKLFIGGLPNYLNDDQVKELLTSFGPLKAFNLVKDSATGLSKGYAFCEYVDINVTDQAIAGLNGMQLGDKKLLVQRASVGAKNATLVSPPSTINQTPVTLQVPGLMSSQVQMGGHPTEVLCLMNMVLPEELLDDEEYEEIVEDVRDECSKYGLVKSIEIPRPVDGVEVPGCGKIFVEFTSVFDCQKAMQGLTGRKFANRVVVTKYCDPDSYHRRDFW
B1: human IGHG3; sequence looked up; chain ASTKGPSVFPLAPCSRSTSGGTAALGCLVKDYFPEPVTVSWNSGALTSGVHTFPAVLQSSGLYSLSSVVTVPSSSLGTQTYTCNVNHKPSNTKVDKRVELKTPLGDTTHTCPRCPEPKSCDTPPPCPRCPEPKSCDTPPPCPRCPEPKSCDTPPPCPRCPAPELLGGPSVFLFPPKPKDTLMISRTPEVTCVVVDVSHEDPEVQFKWYVDGVEVHNAKTKPREEQYNSTFRVVSVLTVLHQDWLNGKEYKCKVSNKALPAPIEKTISKTKGQPREPQVYTLPPSREEMTKNQVSLTCLVKGFYPSDIAVEWESSGQPENNYNTTPPMLDSDGSFFLYSKLTVDKSRWQQGNIFSCSVMHEALHNRFTQKSLSLSPELQLEESCAEAQDGELDGLWTTITIFITLFLLSVCYSATVTFFKVKWIFSSVVDLKQTIIPDYRNMIGQGA
B2: human CDC5L; sequence looked up; chain MPRIMIKGGVWRNTEDEILKAAVMKYGKNQWSRIASLLHRKSAKQCKARWYEWLDPSIKKTEWSREEEEKLLHLAKLMPTQWRTIAPIIGRTAAQCLEHYEFLLDKAAQRDNEEETTDDPRKLKPGEIDPNPETKPARPDPIDMDEDELEMLSEARARLANTQGKKAKRKAREKQLEEARRLAALQKRRELRAAGIEIQKKRKRKRGVDYNAEIPFEKKPALGFYDTSEENYQALDADFRKLRQQDLDGELRSEKEGRDRKKDKQHLKRKKESDLPSAILQTSGVSEFTKKRSKLVLPAPQISDAELQEVVKVGQASEIARQTAEESGITNSASSTLLSEYNVTNNSVALRTPRTPASQDRILQEAQNLMALTNVDTPLKGGLNTPLHESDFSGVTPQRQVVQTPNTVLSTPFRTPSNGAEGLTPRSGTTPKPVINSTPGRTPLRDKLNINPEDGMADYSDPSYVKQMERESREHLRLGLLGLPAPKNDFEIVLPENAEKELEEREIDDTYIEDAADVDARKQAIRDAERVKEMKRMHKAVQKDLPRPSEVNETILRPLNVEPPLTDLQKSEELIKKEMITMLHYDLLHHPYEPSGNKKGKTVGFGTNNSEHITYLEHNPYEKFSKEELKKAQDVLVQEMEVVKQGMSHGELSSEAYNQVWEECYSQVLYLPGQSRYTRANLASKKDRIESLEKRLEINRGHMTTEAKRAAKMEKKMKILLGGYQSRAMGLMKQLNDLWDQIEQAHLELRTFEELKKHEDSAIPRRLECLKEDVQRQQEREKELQHRYADLLLEKETLKSKF

For `KDECVIATEV`, the binding intensity was 0.2 (construct, MBP fusion, human SCRIB, PDZ 3-4; automated holdup; peptide, crude extract; concentration not given, uncorrected, unit not given; relative to: biotin control resin, higher = stronger binding).
For `B1 (human IGHG3)`, “log2 fold change” read 3.24 (CYB5R4 knockout human cells; PP4 interaction, 3xFLAG-PP4C IP-MS; concentration not given; relative to: CYB5R4 KO over parental).
`colistin` has an MIC of no more than 0.5 µg/mL (Enterobacter cloacae; clinical isolate RKI 37/14).
With `CUUCCUGUU (ssRNA)` the Kd was 8.15 µM (U2AF2; sequencing of bound RNA; RNA; motif only).
`PTBP3 (human)`: “log2 fold change” -0.32 (CYB5R4 knockout human cells; PP6 interaction, 3xFLAG-PP6C IP-MS; concentration not given; relative to: CYB5R4 KO over parental).
`AUUUUUUAU (ssRNA)` gave a Kd of 4.75 µM (U2AF2; sequencing of bound RNA; RNA; motif only).
Under “log2 fold change”, `B2 (human CDC5L)` is recorded as -3.57 (CYB5R4 knockout human cells; PP4 interaction, 3xFLAG-PP4C IP-MS; concentration not given; relative to: CYB5R4 KO over parental).
With `GSGAGIATEV` the binding intensity was 0.741 (construct, MBP fusion, human SCRIB, PDZ 3-4; automated holdup; peptide, crude extract; concentration not given, uncorrected, unit not given; relative to: biotin control resin, higher = stronger binding).
`semaglutide` — result for “body weight reduction”: -14.7% (Wistar rat, male, diet-induced obese; subcutaneous, dose not given, day 44; relative to: vehicle).
For `GSGAGSETKM`, the binding intensity was 0.102 (construct, MBP fusion, human SCRIB, PDZ 3-4; automated holdup; peptide, crude extract; concentration not given, corrected by standard peak, unit not given; relative to: biotin control resin, higher = stronger binding).
With `epoetin alfa` the mRNA level was 5.9 fold (UT7/EPO; RT-qPCR, measured: BMP2; concentration not given, 90 min, normalized to HPRT1; relative to: vehicle).
`milbemycin oxime` has an OD600 of 0.936 and 1 and 0.982 (Saccharomyces cerevisiae; cell growth; Pdr5 deleted, Cdr1 overexpressed; 2^-9.966 µg/mL).
`human dynamin-1-like protein` — result for “log2 fold change”: -0.27 (CYB5R4 knockout human cells; PP4 interaction, 3xFLAG-PP4C IP-MS; concentration not given; relative to: CYB5R4 KO over parental).
For `Peginesatide`, the phosphorylation level was 31 fold (UT7/EPO; tyrosine phosphorylation, LC-MS/MS phosphoproteomics, GluC, measured: PLCG1 tyrosine 783; 10 nM, 15 min, added: 10 U/mL EPO; relative to: vehicle).

Some of these lines once more:
`PTBP3 (human)`: “log2 fold change” -0.32 (CYB5R4 knockout human cells; PP6 interaction, 3xFLAG-PP6C IP-MS; concentration not given; relative to: CYB5R4 KO over parental).
`AUUUUUUAU (ssRNA)` gave a Kd of 4.75 µM (U2AF2; sequencing of bound RNA; RNA; motif only).
